# Results collected from several papers.
# Each line is one published result; not all experiments were run side by side. Numbers after ± are the reported error.
# CDC42BPA: Serine/threonine-protein kinase MRCK alpha (CDC42BPA, Homo sapiens, UniProt Q5VT25)
# Sequence of UniProt Q5VT25 (whole entry, looked up): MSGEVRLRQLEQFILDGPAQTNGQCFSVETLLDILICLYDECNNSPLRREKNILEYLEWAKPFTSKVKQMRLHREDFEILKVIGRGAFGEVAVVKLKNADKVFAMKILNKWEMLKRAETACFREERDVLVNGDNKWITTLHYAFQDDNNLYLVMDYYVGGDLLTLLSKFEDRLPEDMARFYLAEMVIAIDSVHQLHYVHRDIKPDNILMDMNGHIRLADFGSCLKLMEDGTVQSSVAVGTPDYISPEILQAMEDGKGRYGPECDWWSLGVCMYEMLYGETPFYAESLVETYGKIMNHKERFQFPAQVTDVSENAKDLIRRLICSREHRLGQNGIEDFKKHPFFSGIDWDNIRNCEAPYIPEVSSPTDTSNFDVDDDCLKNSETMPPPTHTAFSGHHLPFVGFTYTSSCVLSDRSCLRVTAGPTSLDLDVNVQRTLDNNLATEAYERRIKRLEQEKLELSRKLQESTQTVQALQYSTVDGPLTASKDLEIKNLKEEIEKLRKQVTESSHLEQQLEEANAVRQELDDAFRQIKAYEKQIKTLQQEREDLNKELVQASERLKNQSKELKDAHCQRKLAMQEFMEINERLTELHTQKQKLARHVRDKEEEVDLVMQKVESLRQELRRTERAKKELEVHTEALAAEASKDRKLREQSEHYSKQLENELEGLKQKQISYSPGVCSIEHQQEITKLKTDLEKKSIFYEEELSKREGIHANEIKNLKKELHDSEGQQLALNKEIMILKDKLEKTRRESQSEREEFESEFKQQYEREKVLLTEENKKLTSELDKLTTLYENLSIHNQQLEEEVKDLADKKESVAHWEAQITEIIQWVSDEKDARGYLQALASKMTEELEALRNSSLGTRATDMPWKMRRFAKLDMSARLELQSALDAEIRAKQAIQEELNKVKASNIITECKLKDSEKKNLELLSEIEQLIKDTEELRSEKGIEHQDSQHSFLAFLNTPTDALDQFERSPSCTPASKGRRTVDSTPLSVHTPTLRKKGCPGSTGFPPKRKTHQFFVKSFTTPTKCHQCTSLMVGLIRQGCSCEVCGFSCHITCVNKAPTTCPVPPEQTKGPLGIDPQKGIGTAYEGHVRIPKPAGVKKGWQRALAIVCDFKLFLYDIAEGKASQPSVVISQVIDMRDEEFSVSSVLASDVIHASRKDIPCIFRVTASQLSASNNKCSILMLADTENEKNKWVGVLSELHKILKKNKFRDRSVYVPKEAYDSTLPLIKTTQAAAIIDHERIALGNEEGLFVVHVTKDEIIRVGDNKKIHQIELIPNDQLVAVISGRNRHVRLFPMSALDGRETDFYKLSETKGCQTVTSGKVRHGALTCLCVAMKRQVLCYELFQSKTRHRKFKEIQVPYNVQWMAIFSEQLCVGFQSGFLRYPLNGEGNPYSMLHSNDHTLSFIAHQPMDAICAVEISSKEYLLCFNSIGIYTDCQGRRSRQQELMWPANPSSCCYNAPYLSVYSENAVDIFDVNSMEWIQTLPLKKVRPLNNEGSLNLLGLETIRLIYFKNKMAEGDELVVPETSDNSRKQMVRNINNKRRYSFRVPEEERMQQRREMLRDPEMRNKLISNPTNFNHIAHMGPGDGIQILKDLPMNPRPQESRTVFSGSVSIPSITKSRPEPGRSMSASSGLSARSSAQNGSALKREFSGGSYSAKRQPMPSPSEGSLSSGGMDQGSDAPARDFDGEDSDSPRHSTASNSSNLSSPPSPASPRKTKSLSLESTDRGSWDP
# CDK2 with cyclin A2: Cyclin-dependent kinase 2, with cyclin A2 (CDK2, Homo sapiens, UniProt P24941)
# SRMS: Tyrosine-protein kinase Srms (SRMS, Homo sapiens, UniProt Q9H3Y6)
# Sequence of UniProt Q9H3Y6 (whole entry, looked up): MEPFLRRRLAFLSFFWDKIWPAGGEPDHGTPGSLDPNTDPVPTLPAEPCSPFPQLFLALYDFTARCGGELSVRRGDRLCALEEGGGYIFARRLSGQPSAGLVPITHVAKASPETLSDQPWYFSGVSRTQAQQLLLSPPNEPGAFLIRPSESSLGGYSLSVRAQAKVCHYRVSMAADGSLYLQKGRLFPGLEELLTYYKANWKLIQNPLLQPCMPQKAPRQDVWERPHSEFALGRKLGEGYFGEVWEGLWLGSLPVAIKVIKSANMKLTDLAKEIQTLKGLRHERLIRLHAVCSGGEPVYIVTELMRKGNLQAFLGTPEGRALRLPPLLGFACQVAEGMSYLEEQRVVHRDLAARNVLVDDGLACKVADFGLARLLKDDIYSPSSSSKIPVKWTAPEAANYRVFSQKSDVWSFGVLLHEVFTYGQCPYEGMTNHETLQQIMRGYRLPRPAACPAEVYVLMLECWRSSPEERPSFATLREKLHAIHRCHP
# PRKACB: cAMP-dependent protein kinase catalytic subunit beta (PRKACB, Homo sapiens, UniProt P22694)
# Sequence of UniProt O35904 (whole entry, looked up): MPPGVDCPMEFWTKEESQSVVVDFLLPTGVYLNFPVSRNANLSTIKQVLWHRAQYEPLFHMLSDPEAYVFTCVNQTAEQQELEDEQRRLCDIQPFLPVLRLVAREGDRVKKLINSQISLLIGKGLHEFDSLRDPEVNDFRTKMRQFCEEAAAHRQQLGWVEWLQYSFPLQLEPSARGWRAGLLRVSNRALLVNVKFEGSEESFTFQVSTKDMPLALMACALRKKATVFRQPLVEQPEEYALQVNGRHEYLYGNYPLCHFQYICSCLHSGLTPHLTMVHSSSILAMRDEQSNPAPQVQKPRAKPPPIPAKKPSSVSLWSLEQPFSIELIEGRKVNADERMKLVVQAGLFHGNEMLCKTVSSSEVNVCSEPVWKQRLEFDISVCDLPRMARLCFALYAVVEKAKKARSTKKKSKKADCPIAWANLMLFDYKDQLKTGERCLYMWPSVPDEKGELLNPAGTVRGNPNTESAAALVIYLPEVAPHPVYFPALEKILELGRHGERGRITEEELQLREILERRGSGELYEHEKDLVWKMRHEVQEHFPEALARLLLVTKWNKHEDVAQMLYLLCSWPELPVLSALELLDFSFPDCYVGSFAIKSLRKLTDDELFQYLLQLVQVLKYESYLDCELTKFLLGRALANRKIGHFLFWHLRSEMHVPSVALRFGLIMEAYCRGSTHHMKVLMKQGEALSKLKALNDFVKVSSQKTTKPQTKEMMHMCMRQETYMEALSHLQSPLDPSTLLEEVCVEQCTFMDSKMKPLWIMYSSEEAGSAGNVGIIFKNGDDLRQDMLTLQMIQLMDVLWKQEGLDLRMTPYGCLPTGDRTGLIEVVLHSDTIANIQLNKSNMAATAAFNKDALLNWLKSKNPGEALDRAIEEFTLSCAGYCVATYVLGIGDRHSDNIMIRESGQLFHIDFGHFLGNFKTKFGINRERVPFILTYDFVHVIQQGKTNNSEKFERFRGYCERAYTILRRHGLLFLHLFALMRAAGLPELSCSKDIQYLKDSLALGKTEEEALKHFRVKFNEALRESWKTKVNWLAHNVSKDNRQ
# Sequence of UniProt P0AEE8 (whole entry, looked up): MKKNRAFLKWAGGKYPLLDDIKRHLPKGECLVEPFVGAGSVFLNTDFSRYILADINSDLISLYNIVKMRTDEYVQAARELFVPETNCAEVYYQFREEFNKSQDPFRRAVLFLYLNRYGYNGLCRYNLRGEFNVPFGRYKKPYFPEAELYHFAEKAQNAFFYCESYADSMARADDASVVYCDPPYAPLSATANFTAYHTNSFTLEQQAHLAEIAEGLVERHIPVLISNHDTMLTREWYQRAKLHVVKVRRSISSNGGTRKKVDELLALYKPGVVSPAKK
# Sequence of UniProt Q9H2X6 (whole entry, looked up): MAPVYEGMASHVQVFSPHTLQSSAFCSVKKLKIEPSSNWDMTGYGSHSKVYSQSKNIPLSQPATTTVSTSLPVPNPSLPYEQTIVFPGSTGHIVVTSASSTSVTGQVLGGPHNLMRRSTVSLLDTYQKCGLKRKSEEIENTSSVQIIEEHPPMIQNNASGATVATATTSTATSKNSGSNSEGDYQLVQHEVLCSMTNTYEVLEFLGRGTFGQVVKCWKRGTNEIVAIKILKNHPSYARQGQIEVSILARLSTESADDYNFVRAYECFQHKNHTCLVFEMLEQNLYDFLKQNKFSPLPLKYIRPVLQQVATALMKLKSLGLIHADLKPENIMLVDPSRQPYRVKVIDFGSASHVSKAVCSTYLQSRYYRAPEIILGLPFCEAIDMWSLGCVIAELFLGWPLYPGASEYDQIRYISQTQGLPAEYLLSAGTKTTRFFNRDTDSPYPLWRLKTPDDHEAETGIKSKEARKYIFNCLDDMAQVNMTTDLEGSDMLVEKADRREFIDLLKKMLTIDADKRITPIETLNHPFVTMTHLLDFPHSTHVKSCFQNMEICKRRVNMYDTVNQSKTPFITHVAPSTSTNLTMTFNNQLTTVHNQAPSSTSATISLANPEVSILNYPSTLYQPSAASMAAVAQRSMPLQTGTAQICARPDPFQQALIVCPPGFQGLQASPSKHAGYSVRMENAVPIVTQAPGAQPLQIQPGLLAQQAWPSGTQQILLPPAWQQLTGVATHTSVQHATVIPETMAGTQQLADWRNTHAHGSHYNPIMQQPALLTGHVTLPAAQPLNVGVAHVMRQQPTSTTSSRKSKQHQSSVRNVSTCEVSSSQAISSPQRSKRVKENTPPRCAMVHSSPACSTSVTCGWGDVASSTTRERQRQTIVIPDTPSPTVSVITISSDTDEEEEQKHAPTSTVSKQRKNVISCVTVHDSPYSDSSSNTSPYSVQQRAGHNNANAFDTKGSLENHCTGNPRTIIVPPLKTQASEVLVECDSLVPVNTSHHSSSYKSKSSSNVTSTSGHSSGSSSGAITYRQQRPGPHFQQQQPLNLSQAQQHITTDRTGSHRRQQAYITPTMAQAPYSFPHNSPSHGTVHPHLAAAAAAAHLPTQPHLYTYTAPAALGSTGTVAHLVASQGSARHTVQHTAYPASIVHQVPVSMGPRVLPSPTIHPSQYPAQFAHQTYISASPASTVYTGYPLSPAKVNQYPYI
# Sequence of UniProt Q96PF2 (whole entry, looked up): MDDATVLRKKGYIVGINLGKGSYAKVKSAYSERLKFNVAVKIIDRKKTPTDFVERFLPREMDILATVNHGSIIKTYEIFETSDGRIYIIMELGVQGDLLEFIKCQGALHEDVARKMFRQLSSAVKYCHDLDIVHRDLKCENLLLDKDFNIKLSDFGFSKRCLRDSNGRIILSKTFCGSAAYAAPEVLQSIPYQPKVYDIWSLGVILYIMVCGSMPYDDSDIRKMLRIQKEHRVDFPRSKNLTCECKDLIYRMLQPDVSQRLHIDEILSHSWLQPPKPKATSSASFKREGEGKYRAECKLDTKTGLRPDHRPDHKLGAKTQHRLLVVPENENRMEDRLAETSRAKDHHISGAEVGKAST
SMILES,target,assay,system,setting,how to read,remaining activity
Nc1ncnc2c1ncn2C1OC(CSCCNCc2cccc(-c3ccccc3)c2)C(O)C1O (stereo not drawn),"dam (Escherichia coli K-12, UniProt P0AEE8)",,,10 µM,,71.1%
COc1cc(F)ccc1-c1ncnc(Nc2cccc(C[S@](C)(=N)=O)c2)n1,CDC42BPA,kinase activity,,"10 µM, together with: 10 µM ATP",,98%
O=C(O)c1ccc(Nc2ncc3c(n2)-c2ccc(Cl)cc2C(c2c(F)cccc2F)=NC3)cc1,Blk(m),kinase activity,,1 µM,,53%
Cc1cc(NC(=O)c2cccc(NC(=O)/C=C/CN(C)C)c2)ccc1Nc1nccc(-c2cccnc2)n1,"MAPK9 (Homo sapiens, UniProt P45984)","enzyme activity, inhibitor",,"0.5487 µM, unit not given",relative to: vehicle,0.0861
CC(=O)Nc1c(N)nc(SCC(=O)N/N=C/c2ccc([N+](=O)[O-])cc2)[nH]c1=O,CDK2 with cyclin A2,kinase activity,,0.2 nM,,98.1%
Cc1cc(Nc2cc(N3CCN(C)CC3)nc(Sc3ccc(NC(=O)C4CC4)cc3)n2)[nH]n1,CDC42BPA,"kinase activity, KinaseProfiler",,"0.03 µM, species human",relative to: control,130%
COc1cc(N2CCN(C)CC2)ccc1Nc1nc(N)n(C(=S)NCc2c(Cl)cccc2Cl)n1,"EIF2AK4 (Homo sapiens, UniProt Q9P2K8, S808G)",enzyme activity,,10 µM,relative to: control,0.6%
COc1ccc(F)cc1C(=O)NCc1ccc(-c2nn([C@@H](C)C(F)(F)F)c(N)c2C(N)=O)cc1,SRMS,"kinase activity, inhibitor, HotSpot radiometric",,"100 nM, together with: ATP 10 µM",,89.3 ± 0.1%
Cc1ccc(NC(=O)c2ccc(C)c(C(F)(F)F)c2)cc1C#Cc1nn(C2CCC(O)CC2)c2ncnc(N)c12 (stereo not drawn),"Phosphatidylinositol 4,5-bisphosphate 3-kinase catalytic subunit delta isoform, with p85 alpha (Pik3cd, Mus musculus, UniProt O35904)","enzyme activity, inhibitor",,"10 µM, p110d/p85a)(m mouse, together with: ATP 10 µM",,78%
CNC(=O)c1cc(Oc2ccc(NC(=O)Nc3ccc(Cl)c(C(F)(F)F)c3)cc2)ccn1,CDK2 with cyclin A2,"kinase activity, inhibitor, ADP-Glo kinase",,5 nM,,72.4%
O=C1NC(=O)/C(=C/c2ccc(-c3ccc(F)cc3O)o2)S1,"HIPK2 (Homo sapiens, UniProt Q9H2X6)",enzyme activity,,10 µM,,3%
O=C(NC1CCC1)c1ccc2nc(-c3cccc(NS(=O)(=O)NCCN4CCCCC4)c3)cn2c1,CDC42BPA,enzyme activity,,10 µM,,100%
O=C(c1ccc(F)cc1)C1CCN(CCn2c(=O)[nH]c3ccccc3c2=O)CC1,"Diacylglycerol kinase zeta (Dgkz, Rattus norvegicus, UniProt O08560)","kinase activity, inhibitor",HEK293T cell lysate,"50 µM, unit not given, together with: DAG liposomes, [γ32P]ATP",relative to: DMSO vehicle,0.93
COc1cc(N2CCN(C)CC2)ccc1Nc1nc(N)n(C(=O)NCc2c(Cl)cccc2Cl)n1,"DCLK2 (Homo sapiens, UniProt Q8N568)",enzyme activity,,10 µM,relative to: control,0.6%
C=CC(=O)N1CCC([C@@H]2CCNc3c(C(N)=O)c(-c4ccc(Oc5ccccc5)cc4)nn32)CC1,PRKACB,"kinase activity, inhibitor, HotSpot radiometric",,"100 nM, together with: ATP 10 µM",,93.9%
CC(C)Oc1cc(N2CCN(C)CC2)ccc1Nc1nc(N)n(C(=O)NCc2ccccc2S(=O)(=O)C(C)C)n1,"IGF1R (Homo sapiens, UniProt P08069)",enzyme activity,,10 µM,relative to: control,5.4%
CNc1ncc2c(/C=C/C(=O)N3CCC(OC)CC3)nn(Cc3cccc(C(F)(F)F)c3)c2n1,"CAMK2D (Homo sapiens, UniProt Q13557)","kinase activity, inhibitor",,1 µM,relative to: untreated control,93%
NC/C(=C\F)COc1cccc(Cn2c(=S)[nH]c(=O)c3[nH]cnc32)c1,"Peroxidasin homolog (PXDN, Homo sapiens, UniProt Q92626)",Amplex UltraRed,,0.3125 µM,relative to: control,99.8%
C=CC(=O)N1CCC[C@@H](n2nc(-c3ccc(Oc4ccccc4)cc3)c3c(N)ncnc32)C1,"EPHA3 (Homo sapiens, UniProt P29320)",,,10 µM,,81.5%
COc1cc(N2CCN(C)CC2)ccc1Nc1nc(N)n(C(=O)NCc2ccccc2S(=O)(=O)C(C)C)n1,CDC42BPA,enzyme activity,,10 µM,relative to: control,21%
C[C@H]1[C@H](OC(=O)CCC(=O)O)O[C@@H]2O[C@@]3(C)CC[C@H]4[C@H](C)CC[C@@H]1[C@@]24OO3,"Non-structural polyprotein pORF1, RNA-dependent RNA polymerase (Hepatitis E virus genotype 1, UniProt P33424)","polymerase activity, inhibitor, colorimetric",,9.7 µM,relative to: untreated,70.2%
Nc1ncc2c(n1)-c1c([nH]c3ccc(-c4ccc(F)cc4)cc13)CCC2,"TSSK2 (Homo sapiens, UniProt Q96PF2)","kinase activity, inhibitor, radiometric",,"1 µM, together with: ATP at Km",,68%
COc1cc(Nc2ncc3c(n2)-c2ccc(Cl)cc2C(c2c(F)cccc2OC)=NC3)ccc1C(=O)O,GRK5,kinase activity,,1 µM,,99%
C=CC(=O)N1CCC[C@@H](n2nc(-c3ccc(Oc4ccccc4)cc3)c3c(N)ncnc32)C1,PRKACB,"kinase activity, inhibitor, HotSpot radiometric",,"100 nM, together with: ATP 10 µM",,79.4 ± 0.5%
CC(=O)Nc1c(N)nc(SCC(=O)NN)[nH]c1=O,CDK2 with cyclin A2,kinase activity,,5 nM,,85.4%
CC#CC(=O)N1CCC[C@H]1c1nc(-c2ccc(C(=O)Nc3ccccn3)cc2)c2c(N)nccn12,SRMS,"kinase activity, inhibitor, HotSpot radiometric",,"100 nM, together with: ATP 10 µM",,92.7 ± 1.8%
COc1cc(-c2cncc3c2CN(C)Cc2cc(N4CCNCC4)ccc2-3)cc(OC)c1OC,"CIT (Homo sapiens, UniProt O14578)",kinase activity,,"1 µM, human enzyme, together with: ATP 10 µM",relative to: DMSO control,97%
